Measurements pooled from the literature.
Parts stem from different laboratories: compare values within a part only.

Set 1
Target: Interferon regulatory factor 7, full length, phosphomimetic (IRF7, Homo sapiens, UniProt Q92985, residues 1-503, S471D/S472D/S475D/S476D/S477D/S483D/S484D/S487D)
Method: protein-binding microarray
Form: double-stranded DNA, one strand shown
Sample: in vitro
Tested at: 2200 nM top
Setting: 60-bp whole probe
Added: salmon DNA 0.4 mg/ml
Baseline: random background probes
Reading: higher = stronger binding
Target sequence (chain): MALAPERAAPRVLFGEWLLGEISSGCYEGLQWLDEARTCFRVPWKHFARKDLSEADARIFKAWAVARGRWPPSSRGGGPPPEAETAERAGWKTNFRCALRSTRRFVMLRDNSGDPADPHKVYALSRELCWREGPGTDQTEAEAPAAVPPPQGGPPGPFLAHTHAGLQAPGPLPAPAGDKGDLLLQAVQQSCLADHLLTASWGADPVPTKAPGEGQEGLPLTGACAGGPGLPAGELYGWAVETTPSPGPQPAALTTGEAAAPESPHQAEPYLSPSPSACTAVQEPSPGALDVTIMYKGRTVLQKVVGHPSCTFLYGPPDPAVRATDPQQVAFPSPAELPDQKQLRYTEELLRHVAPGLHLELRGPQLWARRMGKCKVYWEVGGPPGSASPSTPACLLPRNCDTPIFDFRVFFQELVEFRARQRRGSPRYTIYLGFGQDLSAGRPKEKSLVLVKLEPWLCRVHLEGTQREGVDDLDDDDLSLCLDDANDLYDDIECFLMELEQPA
Oligonucleotide	fitted relative affinity [z-score]
GCCTAGCACTACATTTTCCAAATGCCCCTGTGCTAGGTCTTGATTCGCTTGACGCTGCTG	2.66
GCCTAGCACGACGGCTTCGGGTTTCGGGACGTGCTAGTCTTGATTCGCTTGACGCTGCTG	1.38
GCCTAGCACGACGATATTGGGTTTCGAGACGTGCTAGTCTTGATTCGCTTGACGCTGCTG	1.64
GCCTAGCACGACGAACTGGGGTTTCGAGGCGTGCTAGTCTTGATTCGCTTGACGCTGCTG	0.893

Set 2
Target: Histone acetyltransferase KAT6A, both winged helices, GST fusion (KAT6A, Homo sapiens, UniProt Q92794, residues 1-181)
Method: protein binding microarray
Form: double-stranded DNA, one strand shown
Sample: in vitro
Tested at: not given
Setting: 8-mer, flanks averaged, mean of 2 arrays, mostly near background
Baseline: not given
Reading: higher = stronger binding
Residues (chain): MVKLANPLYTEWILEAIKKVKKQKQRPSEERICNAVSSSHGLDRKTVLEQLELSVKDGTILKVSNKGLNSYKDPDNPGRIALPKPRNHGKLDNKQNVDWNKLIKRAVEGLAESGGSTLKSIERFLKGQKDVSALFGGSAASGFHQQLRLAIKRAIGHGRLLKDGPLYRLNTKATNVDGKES
Oligonucleotide	E-score
ACGCATCT	0.00385
AGAGGTAC	-0.158
ACCGGACT	0.121

Set 3
Target: Transcriptional repressor CTCF (CTCF, Homo sapiens, UniProt P49711, residues 1-727, full length assumed)
UniProt P49711, sequence (whole entry, looked up): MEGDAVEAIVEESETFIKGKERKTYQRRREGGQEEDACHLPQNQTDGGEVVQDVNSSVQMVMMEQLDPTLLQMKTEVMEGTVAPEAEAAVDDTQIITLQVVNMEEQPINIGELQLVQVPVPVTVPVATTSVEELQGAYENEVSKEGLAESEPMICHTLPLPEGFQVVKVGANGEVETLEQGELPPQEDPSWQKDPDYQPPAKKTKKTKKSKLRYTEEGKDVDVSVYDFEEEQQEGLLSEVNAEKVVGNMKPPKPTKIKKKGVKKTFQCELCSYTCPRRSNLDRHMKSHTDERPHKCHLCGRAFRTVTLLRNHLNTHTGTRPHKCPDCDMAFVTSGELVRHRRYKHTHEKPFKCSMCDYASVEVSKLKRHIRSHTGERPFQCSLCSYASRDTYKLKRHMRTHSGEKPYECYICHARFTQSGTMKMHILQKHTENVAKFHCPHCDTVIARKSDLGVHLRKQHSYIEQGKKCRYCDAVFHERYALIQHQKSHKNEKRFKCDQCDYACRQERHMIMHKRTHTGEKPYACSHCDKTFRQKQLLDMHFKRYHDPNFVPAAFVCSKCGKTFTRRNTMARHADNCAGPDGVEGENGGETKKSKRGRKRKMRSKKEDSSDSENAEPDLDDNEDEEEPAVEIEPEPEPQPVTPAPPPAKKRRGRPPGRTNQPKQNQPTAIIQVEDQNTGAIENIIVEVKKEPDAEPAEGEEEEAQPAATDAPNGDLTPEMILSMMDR
Method: protein-binding microarray
Form: double-stranded DNA, one strand shown
Sample: in vitro
Tested at: not given
Setting: k-mer, scored over probes, only values ≥0.25
Reading: higher = stronger binding
Oligonucleotide	E-score
TCGCGCGA	0.268
TCGCGCAA	0.34
ATTATGGA	0.267
TGTCATAA	0.264

Further values, each from its own experiment
Substance	target	test	system	conditions	scale	quantity	value
PhoQ, residues 284 288 289 292 302 303 SSCLAV	PhoP, residues 12 14 15 18 19 AYFRS (Escherichia coli, UniProt P23836)	Sort-seq, refers to: YFP reporter	E. coli	PhoQ-PhoP variant library, added: 10 µM Mg2+	baseline: high Mg2+ state, higher = stronger signaling	fold induction	6.39

Some of these lines once more (set 1):
Oligonucleotide	fitted relative affinity [z-score]
GCCTAGCACGACGGCTTCGGGTTTCGGGACGTGCTAGTCTTGATTCGCTTGACGCTGCTG	1.38
